Measurements pooled from the literature.
Parts stem from different laboratories: compare values within a part only. Positions count from the first letter of the parent shown.

Study 1 — technique: universal PBM; molecule type: double-stranded DNA, one strand shown; medium: in vitro; tested at: not given; reading: higher = stronger binding
Target: Sal-like protein 4, full length isoform B (SALL4, Homo sapiens, UniProt Q9UJQ4-2, residues 1-616)
Notes: 8-mer, flanks averaged, mean of replicates
| Strand | E-score |
| --- | --- |
| GCTTTGAA | 0.179 |
| CTGGGGTA | -0.206 |
| CGCCGTTC | -0.182 |
| TGAGATCA | -0.06 |
| GAACGAGC | 0.0381 |

Study 2 — technique: RNA Bind-n-Seq; molecule type: RNA; medium: in vitro; tested at: 365 nM; baseline: no-protein control; reading: higher = stronger binding
Target: RNA binding protein fox-1 homolog 2, RRM domain, GST-SBP tag (RBFOX2, Homo sapiens, UniProt O43251-10, residues 100-194)
Notes: natural RNA segment, single round, ends assumed
Shared flanks, not repeated: GGGAGUUCUACAGUCCGACGAUC … UGGAAUUCUCGGGUGCCAA
Construct (chain): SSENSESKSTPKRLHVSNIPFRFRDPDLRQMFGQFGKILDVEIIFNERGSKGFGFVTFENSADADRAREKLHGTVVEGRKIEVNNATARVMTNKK
| Strand | RBNS enrichment (R) |
| --- | --- |
| CCCUUCAAUUCCUCAAGUCUGGGUGGUGACAAGGUAGGGGCUAGGUACUGGACUACCACAGGUUUUUAGGAACUAAGGUGUUUCUCAUAAACACAAAAUGUUGGGUGAAA | 0.739 |
| AGAUAUAACUGAUGGGCUUUGAACCUGGUUGGCCGGGGAAGCUGUAGGGGUGGAUAGAGCUGGCUUUCCUUCUGGGCUGUCUCCAUCUGACCCUACCCCUUCCAUGUCCC | 0.329 |
| AACAGCUUUCUGGGUAAUUCACCAAUUUCCUUUAAAACAUAAGCUACCUGAAUGGAGAAUACAUCUUGUUUCUGAGUUUCAACACUAGCAUUUUUGGCUUACUCAUGGAC | 0.421 |
| AAAUUUUAAGUCUUCCAGUCUUCCAUGUGAACUUUAGGCCCAAAGUUUCUUAUGUAUCACACAUCCCCCAAAUAAGUGAUUUUUUCCCAGUGCUUUGUACUGUCAACUGC | 0.737 |
| CUUUUGCCCUCUCCUCUCCCCACCCCCCAGAAACAGAUGACGUUGUACAAUAAAGGACUUUGCGAGUCCAUGGGUGCCUGCAGCCCCCAUGCAUGCAGUCAGGUCCUCAG | 0.894 |

Other studies, line by line — CCNB1: CCNB1, cyclin fold, Cln2 fusion (human)
P1: CDC6 docking peptide (human); TLKGRRLVFDNQL
P2: SCAPER docking peptide (human); SNARRSLNFGGST
P3: CDKN1B docking peptide (human); PSACRNLFGPVDH; partner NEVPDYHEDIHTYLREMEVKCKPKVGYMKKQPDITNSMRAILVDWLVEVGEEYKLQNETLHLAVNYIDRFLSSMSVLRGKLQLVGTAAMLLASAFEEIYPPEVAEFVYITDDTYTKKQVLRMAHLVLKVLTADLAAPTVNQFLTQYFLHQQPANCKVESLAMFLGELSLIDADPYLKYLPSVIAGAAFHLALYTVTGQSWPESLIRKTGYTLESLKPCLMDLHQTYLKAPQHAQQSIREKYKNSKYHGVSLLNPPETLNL
| Substance | target | assay | system | conditions | how to read | quantity | result |
| --- | --- | --- | --- | --- | --- | --- | --- |
| P1 R6M | CCNB1 | yeast growth competition, sequencing | yeast | weak parent motif | baseline: not given, higher = stronger binding | normalised enrichment score | 0.828 |
| PhoQ, residues 284 288 289 292 302 303 GTAMQF | PhoP, residues 12 14 15 18 19 GQAIL (Escherichia coli, UniProt P23836) | Sort-seq, item: YFP reporter | E. coli | PhoQ-PhoP variant library, together with: 10 µM Mg2+ | baseline: high Mg2+ state, higher = stronger signaling | fold induction | 10.8 |
| P2 F9C | CCNB1 | yeast growth competition, sequencing | yeast | weak parent motif | baseline: not given, higher = stronger binding | normalised enrichment score | 0.412 |
| P3 R5F | CCNA2, cyclin fold, Cln2 fusion (human) | yeast growth competition, sequencing | yeast | strong parent motif | baseline: not given, higher = stronger binding | normalised enrichment score | 0.487 |
| P2 L7Y | CCNB1 | yeast growth competition, sequencing | yeast | weak parent motif | baseline: not given, higher = stronger binding | normalised enrichment score | 0.231 |

Repeated from above (study 1):
| Strand | E-score |
| --- | --- |
| CTGGGGTA | -0.206 |
